Published values gathered from unrelated publications.
Compare with care: the assays were run in different laboratories. ± marks the error that the study gave.

SMILES | test | test system | conditions | AUC(0-inf)
CC(C)c1nc(N(C)S(C)(=O)=O)nc(-c2ccc(F)cc2)c1/C=C/[C@@H](O)C[C@@H](O)CC(=O)O | – | human, plasma | oral, 20 mg, alone, geometric LS mean | 0.0495 µg·h/mL
Cc1ccc(NC(=O)c2ccc(CN3CCN(C)CC3)cc2)cc1Nc1nccc(-c2cncc(-c3oncc3C)c2)n1 | – | older healthy human adults, plasma | oral, 175 mg single dose, fed, mean | 172 µg·h/mL
CC(C)c1nc(N(C)S(C)(=O)=O)nc(-c2ccc(F)cc2)c1/C=C/[C@@H](O)C[C@@H](O)CC(=O)O | – | humans, plasma | oral, 20 mg, geometric mean, with: fenebrutinib 200 mg twice daily | 0.228 µg·h/mL
CCOc1cc([C@@H](CS(C)(=O)=O)N2C(=O)c3cccc(NC(C)=O)c3C2=O)ccc1O[C@@H]1O[C@H](C(=O)O)[C@@H](O)[C@H](O)[C@H]1O | – | healthy human controls, plasma | oral, 30 mg apremilast, matched to moderate impairment | 4.88 µg·h/mL
CCn1c(=O)c2c(nc(/C=C/c3ccc(OC)c(OC)c3)n2C)n(CC)c1=O | – | healthy human, plasma | oral, 40 mg single dose, geometric mean, with: rifampin 600 mg/day steady state | 2.03 µg·h/mL
O=C(/C=C/c1cccc(S(=O)(=O)Nc2ccccc2)c1)NO | – | human, normal liver function, plasma | intravenous, 400 mg/m^2, 30 min infusion, single dose, mean | 12 µg·h/mL
O=C1NC(=O)C(Cc2ccc(OCCNc3ccccn3)cc2)S1 (stereo not drawn) | – | human, plasma | oral, 4 mg rosiglitazone alone, day 1, metabolite, geometric mean | 2190 µg·h/mL
CCCC[C@H](NC(C)=O)C(=O)N[C@H]1CCC(=O)NC[C@@H](C(=O)N[C@@H](Cc2c[nH]c3ccccc23)C(N)=O)NC(=O)[C@H](CCCNC(=N)N)NC(=O)[C@@H](Cc2ccccc2)NC(=O)[C@H](Cc2c[nH]cn2)NC1=O | – | healthy human volunteers, plasma | subcutaneous, 1.0 mg once daily, day 1 | 0.0523 µg·h/mL
O=C(/C=C/c1cccc(S(=O)(=O)Nc2ccccc2)c1)NO[C@@H]1O[C@H](C(=O)O)[C@@H](O)[C@H](O)[C@H]1O | – | human moderate liver dysfunction, plasma | intravenous, 400 mg/m^2, 30 min infusion, cycle 1 day -7, with: belinostat 400 mg/m^2 iv | 307 µg·h/mL
COc1ccc(C[C@@H](C)[C@@H](C)Cc2ccc(OC)c(OC)c2)cc1OC | – | human patients, fasted | oral, 3600 mg, cycle 1 day 4 | 2.5 ± 1.7 µg·h/mL
CO[C@H]1C[C@@H]2CC[C@@H](C)[C@@](O)(O2)C(=O)C(=O)N2CCCC[C@H]2C(=O)O[C@H]([C@H](C)C[C@@H]2CC[C@@H](O)[C@H](OC)C2)CC(=O)[C@H](C)/C=C(\C)[C@@H](O)[C@@H](OC)C(=O)[C@H](C)C[C@H](C)/C=C/C=C/C=C/1C | – | healthy adult human, blood | oral, 0.5 mg single dose, geometric mean, with: ritonavir-containing 3D regimen | 1.7 µg·h/mL
CC(C)NC[C@@H](C(=O)N1CCN(c2ncnc3c2[C@H](C)C[C@H]3O)CC1)c1ccc(Cl)cc1 | – | human, hepatic impairment Mild (Child-Pugh), plasma | oral, 100 mg single, geometric mean | 0.323 µg·h/mL
CN(C)Cc1c(C(=O)NCCOc2ccc(C(=O)NO)cc2)oc2ccccc12 | – | human, plasma | oral, 60 mg single dose | 0.242 ± 0.041 µg·h/mL
C[C@H]1O[C@@H](O[C@H]2[C@@H](O)C[C@H](O[C@H]3[C@@H](O)C[C@H](O[C@H]4CC[C@@]5(C)[C@H](CC[C@@H]6[C@@H]5C[C@@H](O)[C@]5(C)[C@@H](C7=CC(=O)OC7)CC[C@]65O)C4)O[C@@H]3C)O[C@@H]2C)C[C@H](O)[C@@H]1O | – | human | oral, 0.5 mg single dose, day 19, with: isavuconazole 200 mg once daily | 0.0421 µg·h/mL
C=CC(=O)Nc1cc(Nc2ncc(C(=O)OC(C)C)c(-c3cn(C)c4ccccc34)n2)c(OC)cc1N(C)CCN(C)C | – | human, fasted | oral, 40 mg single dose, geometric mean | 0.16 µg·h/mL
CCS(=O)(=O)N1CC(CC#N)(n2cc(-c3ncnc4[nH]ccc34)cn2)C1 | – | healthy Chinese human subjects, plasma | oral, 2 mg, single dose, mean | 0.14 µg·h/mL
O=c1[nH]c(=O)c(Cc2cccc(C(F)(F)F)c2)c([C@H]2CC[C@H](c3ccccc3)CC2)[nH]1 | – | human, fasted, plasma | oral, 300 mg single dose, geometric mean | 3.08 µg·h/mL
CCc1nc(C(N)=O)c(Nc2ccc(N3CCC(N4CCN(C)CC4)CC3)c(OC)c2)nc1NC1CCOCC1 | – | healthy humans, after high-fat breakfast, plasma | oral, 40 mg, single dose | 1.9 µg·h/mL
CNC(=O)c1c(C)oc2cc(Oc3ncnc4cc(OC)c(OC)cc34)ccc12 | – | human, plasma | oral, 5 mg, fasted, with: rabeprazole 40 mg | 5.52 µg·h/mL
CN(Cc1nc2c(N)nc(N)nc2[nH]c1=O)c1ccc(C(=O)N[C@@H](CCC(=O)O)C(=O)O)cc1 | – | human, plasma | oral, 15 mg methotrexate, day 1, alone, arithmetic mean | 1.47 µg·h/mL
CC[C@H](C)[C@@H]1NC(=O)[C@H](CCCNC(=N)N)NC(=O)[C@H](CC(=O)O)NC(=O)[C@H](CC(C)C)NC(=O)[C@H](CCCCN)NC(=O)[C@H](CC(C)C)NC(=O)CNC(=O)[C@H](Cc2ccccc2)NC(=O)[C@@H](NC(=O)CNC(=O)[C@H](CCCCN)NC(=O)[C@H](CO)NC(=O)[C@H](CC(C)C)NC(=O)CNC(=O)[C@H](CCCCN)NC(=O)[C@H](CCCCN)NC(=O)[C@H](CC(N)=O)NC(=O)[C@H](C)NC(=O)CNC(=O)[C@H](CCCCN)NC(=O)[C@H](Cc2ccc(O)cc2)NC(=O)[C@H](CCCCN)NC(=O)[C@H](CCCNC(=N)N)NC(=O)[C@H](C)NC(=O)[C@H](CC(N)=O)NC(=O)[C@@H]2CCCN2C(=O)[C@H](Cc2c[nH]cn2)NC(=O)[C@H](CCC(=O)O)NC(=O)[C@H](CCC(N)=O)NC(=O)CNC(=O)[C@@H]2CCCN2)CSSC[C@@H](C(=O)O)NC(=O)CNC(=O)[C@H](CC(C)C)NC(=O)CNC(=O)[C@H](CO)NC(=O)[C@H](CCSC)NC(=O)[C@H](CO)NC(=O)CNC1=O | ECLA | human, plasma | subcutaneous, 15 µg/kg once daily, week 52 | 0.0046 µg·h/mL
CC(=O)O[C@H]1C(=O)[C@@]2(C)[C@H]([C@H](OC(=O)c3ccccc3)[C@]3(O)C[C@H](OC(=O)[C@H](O)[C@@H](NC(=O)c4ccccc4)c4ccccc4)C(C)=C1C3(C)C)[C@]1(OC(C)=O)CO[C@@H]1C[C@@H]2O | – | human patients on multiple protease inhibitors, plasma | iv, 100 mg/m^2 over 3 h, cycle 1 | 5 ± 2.4 µM·h
C=CC(=O)N1C[C@H](Nc2ncnc3[nH]ccc23)CC[C@@H]1C | – | healthy human, plasma | oral, 50 mg single dose, with: no rifampicin | 0.449 µg·h/mL

SMILES | test | test system | conditions | AUC(0-inf)
C[C@@H](Oc1cc(-c2cnn(C3CCNCC3)c2)cnc1N)c1c(Cl)ccc(F)c1Cl | – | healthy human, plasma | oral, 250 mg single fasted, geometric mean | 2.44 µg·h/mL
C=C(C)[C@@H]1CC[C@]2(NCCN3CCS(=O)(=O)CC3)CC[C@]3(C)[C@H](CC[C@@H]4[C@@]5(C)CC=C(C6=CC[C@@](CF)(C(=O)O)CC6)C(C)(C)[C@@H]5CC[C@]43C)[C@@H]12 | – | healthy human volunteers, plasma | oral, 200 mg, tablet, fasted state, geometric mean | 13.5 µg·h/mL
CN[C@@H]1COc2c(S(=O)(=O)NC(=O)Nc3c4c(cc5c3CCC5)CCC4)cnn2C1 | – | human | oral, 600 mg, high-fat meal, geometric LS mean | 147 µg·h/mL
Cc1ccc(C(=O)NC2CC2)cc1-n1ncc(C(=O)c2cccc(C#N)c2)c1N | – | human, plasma | oral, 14 mg, single dose alone, geometric mean | 5.95 µg·h/mL
CC(C)[C@](O)(c1ccc2cc(OC(F)F)c(OC(F)F)cc2c1)c1c[nH]nn1 | – | human patients, male, plasma | oral, 600 mg, cycle 1 day 1, first dose | 33 ± 4.33 µg·h/mL
CC(=O)Nc1ccc(OS(=O)(=O)O)cc1 | – | healthy human volunteers | dose not given, day 1, acetaminophen alone | 25.1 µg·h/mL
NS(=O)(=O)OC[C@@H]1C[C@@H](n2ccc3c(N[C@H]4CCc5ccccc54)ncnc32)C[C@@H]1O | – | human | iv, 8 mg/m^2 single dose, day 8, geometric mean, with: fluconazole | 0.498 µg·h/mL
CC(C)[C@@H](CS(=O)(=O)C(C)C)N1C(=O)[C@@](C)(CC(=O)O)C[C@H](c2cccc(Cl)c2)[C@H]1c1ccc(Cl)cc1 | – | human, plasma | oral, 60 mg, new tablet, fasted, arithmetic mean | 3.43 µg·h/mL
CNC(=O)c1ccc(-c2cnc3ncc(Cc4ccc5ncccc5c4)n3n2)cc1F | – | healthy human subjects, plasma | oral, 200 mg, arithmetic mean, alone | 5.5 µg·h/mL
NC1(c2ccc(-c3nc4ccn5c(=O)[nH]nc5c4cc3-c3ccccc3)cc2)CCC1 | – | human patients, plasma | oral, 135 mg, alone, expansion | 13.4 ± 3.73 µg·h/mL
Cc1c(Cl)c(C)[n+]([O-])c(Cl)c1-c1noc(-c2cc(O)c(O)c([N+](=O)[O-])c2)n1 | LC-MS/MS | healthy male human, fasted, plasma | oral, 25 mg single dose, capsule | 2.15 ± 0.617 µg·h/mL
CC[C@@]1(O)C(=O)OCc2c1cc1n(c2=O)Cc2cc3c(CN(C)C)c(O)ccc3nc2-1 | – | human patients | oral, 4 mg, geometric mean, alone | 0.061 µg·h/mL
CCN1CCN(Cc2ccc(Nc3ncc(F)c(-c4cc(F)c5nc(CO)n(C(C)C)c5c4)n3)nc2)CC1 | – | human patients | oral, 150 mg single, geometric mean | 2.3 µg·h/mL
CCc1cc(/C(C)=N/OCc2ccc(C3CCCCC3)c(C(F)(F)F)c2)ccc1CN1CC(C(=O)O)C1 | – | healthy human, plasma | oral, 4 mg, geometric mean, with: fluconazole steady state | 2.19 µg·h/mL
CCCc1nn(C)c2c(=O)[nH]c(-c3cc(S(=O)(=O)N4CCN(C)CC4)ccc3OCC)nc12 | – | human, male, plasma | oral, dose not given, day 8, with: sacubitril/valsartan | 0.576 µg·h/mL
CN(Cc1cnc2nc(N)nc(N)c2n1)c1ccc(C(=O)N[C@@H](CCC(=O)O)C(=O)O)cc1 | – | human, plasma | oral, 10 mg, with: apremilast 30 mg twice daily | 1.3 µg·h/mL
CO[C@H]1C[C@@H]2CC[C@@H](C)[C@@](O)(O2)C(=O)C(=O)N2CCCC[C@H]2C(=O)O[C@H]([C@H](C)C[C@@H]2CC[C@@H](O)[C@H](OC)C2)CC(=O)[C@H](C)/C=C(\C)[C@@H](O)[C@@H](OC)C(=O)[C@H](C)C[C@H](C)/C=C/C=C/C=C/1C | – | human, whole blood | oral, 35 mg, with: grapefruit juice | 6.66 µg·h/mL
O=C(CCCCCCC(=O)Nc1ccccc1)NO | LC-MS/MS | human, serum | oral, 200 mg, day 1, first dose mean | 0.779 µg·h/mL
CCOc1cc([C@@H](CS(C)(=O)=O)N2C(=O)c3cccc(NC(C)=O)c3C2=O)ccc1OC | – | healthy human, male, plasma | oral, 20 mg single dose, without ketoconazole | 2.07 µg·h/mL
N#C[C@@H]1C[C@@H]2C[C@@H]2N1C(=O)[C@@H](N)C12CC3CC(CC(O)(C3)C1)C2 | – | healthy human subjects, plasma | oral, 10 mg, day 10, geometric mean, with: diltiazem extended-release 360 mg | 0.332 µg·h/mL
CC(C)(/C=C(\C#N)C(=O)N1CCC[C@@H](n2nc(-c3ccc(Oc4ccccc4)cc3F)c3c(N)ncnc32)C1)N1CCN(C2COC2)CC1 | – | human, plasma | oral, 100 mg single dose, median | 0.051 µg·h/mL
C=CC[C@@H]1/C=C(\C)C[C@H](C)C[C@H](OC)[C@H]2O[C@@](O)(C(=O)C(=O)N3CCCC[C@H]3C(=O)O[C@H](/C(C)=C/[C@@H]3CC[C@@H](O)[C@H](OC)C3)[C@H](C)[C@@H](O)CC1=O)[C@H](C)C[C@@H]2OC | – | healthy human subjects, whole blood | oral, 5 mg single dose, arithmetic mean, with: isavuconazole 200 mg once daily after loading | 0.695 µg·h/mL
